Measured values gathered from unrelated publications.
Each line is one published result; not all experiments were run side by side. “And” joins repeats or separate records; there may be more than shown. Numbers after ± are the reported error.

CCCCC1(CCCC)CN(c2ccccc2)c2cc(SC)c(OCC(=O)N[C@@H](C(=O)NCC(=O)O)c3ccccc3)cc2S(=O)(=O)C1  AUC(0-t) (human, plasma; oral, 2.5 mg once daily, day 14, geometric mean): 0.249 ng·h/mL
CS(=O)(=O)n1cc2c(n1)CN([C@H]1CO[C@H](c3cc(F)ccc3F)[C@@H](N)C1)C2  Ctrough (healthy Japanese men, plasma; oral, 10 mg once weekly, day 15): 10.1 nM
Cc1c2oc3c(C)ccc(C(=O)N[C@@H]4C(=O)N[C@H](C(C)C)C(=O)N5CCC[C@H]5C(=O)N(C)CC(=O)N(C)[C@@H](C(C)C)C(=O)O[C@@H]4C)c3nc-2c(C(=O)N[C@@H]2C(=O)N[C@H](C(C)C)C(=O)N3CCC[C@H]3C(=O)N(C)CC(=O)N(C)[C@@H](C(C)C)C(=O)O[C@@H]2C)c(N)c1=O  AUC(0-inf) (mouse, FVB wild type, plasma; intravenous, 0.5 mg/kg): 168 ng·h/mL
C=CC1=C(C(=O)O)N2C(=O)[C@@H](NC(=O)/C(=N\OCC(=O)O)c3csc(N)n3)[C@H]2SC1  EC20 (cytochrome c release, ELISA; BALB/cByJ female mouse liver mitochondria; 30 min; baseline: alamethicin maximal release): > 400 µM
Cc1cc(Nc2cc3ncccc3c(N[C@@H]3C[C@H]4CC[C@@H](C3)N4CCC#N)n2)n[nH]1  Cmax (pregnant rat, maternal plasma; oral, 1000 mg/kg/day, gestation day 6): 102 ng/mL
CN(C)C(=N)N=C(N)N  EC20 (mitochondrial swelling; BALB/cByJ female mouse liver mitochondria; 30 min, with: succinate + rotenone; baseline: CaCl2 maximal swelling): > 400 µM
CCOc1ccc2c(c1)C(C)=CC(C)(C)N2  residue concentration (LC-MS/MS; piglets, kidney; oral, 50 mg/kg feed, 42 days): 4.9 ± 3.1 ng/g
Cc1ccc(C(=O)c2cc(O)c(O)c([N+](=O)[O-])c2)cc1  EC20 (mitochondrial swelling; BALB/cByJ female mouse liver mitochondria; 30 min, with: succinate + rotenone; baseline: CaCl2 maximal swelling): > 400 µM
CC(C)(NC(=O)O[C@@H]1CN2CCC1CC2)c1csc(-c2ccc(F)cc2)n1  Vd (CD-1 mouse, plasma; intravenous): 6.67 L/kg
C[C@@H](N)c1cc(Cl)ccc1Cn1c(=S)[nH]c(=O)c2[nH]ccc21  tolerability (Japanese and Chinese participants; up to 5 mg): not toxic
CNS(=O)(=O)Cc1ccc2[nH]cc(CCN(C)C)c2c1  EC20 (cytochrome c release, ELISA; BALB/cByJ female mouse liver mitochondria; 30 min; baseline: alamethicin maximal release): > 400 µM
CCOc1ccc(Cc2cc([C@@H]3S[C@H](CO)[C@@H](O)[C@H](O)[C@H]3O)c(OC)cc2C)cc1  AUC(0-last) (Japanese type 2 diabetes patients, plasma; oral, 5 mg single dose, eGFR 30-44 mL/min/1.73 m^2): 2030 ± 403 ng·h/mL
Cc1cc(Nc2ncc(Cl)c(Nc3ccccc3S(=O)(=O)C(C)C)n2)c(OC(C)C)cc1C1CCNCC1  AUC(0-tau) total (human, plasma; oral, 450 mg/day with food, steady state after dose 9): 23.6 µM·h and 20.3 µM·h and 23.3 µM·h and 19.7 µM·h and 16.1 µM·h and 21.3 µM·h
Cc1cc(=O)n(-c2ccccc2)n1C  EC20 (mitochondrial swelling; BALB/cByJ female mouse liver mitochondria; 30 min, with: succinate + rotenone; baseline: CaCl2 maximal swelling): > 400 µM
C#Cc1cccc(Nc2ncnc3cc(OCCOC)c(OCCOC)cc23)c1  time to therapeutic level (Sprague-Dawley rat female, serum; oral, 6 mg/kg daily): ~18 h
CO[C@H]1C[C@@H]2CC[C@@H](C)[C@@](O)(O2)C(=O)C(=O)N2CCCC[C@H]2C(=O)O[C@H]([C@H](C)C[C@@H]2CC[C@@H](O)[C@H](OC)C2)CC(=O)[C@H](C)/C=C(\C)[C@@H](O)[C@@H](OC)C(=O)[C@H](C)C[C@H](C)/C=C/C=C/C=C/1C  Cmax (human, whole blood; oral, 15 mg, without grapefruit juice): 50.3 ng/mL
CCc1oc2cc(O)ccc2c1C(=O)c1cc(Br)c(O)c(Br)c1  microsomal CLint (metabolic stability; Sprague-Dawley rat, liver microsomes; 1 µM, pH 7.4): 23 µL/min/mg
O=c1c(O)c(-c2ccc(O)cc2)oc2cc(OS(=O)(=O)O)cc(O)c12  MRT (FVB mice, male, Mdr1a^−/−, plasma; oral, 10 mg/kg of kaempferol): 3.95 ± 1.53 h
CC1=C2C[C@H]3[C@@H](CC[C@@H]4C[C@H](NS(C)(=O)=O)CC[C@@]43C)[C@@H]2CC[C@@]2(C1)O[C@@H]1C[C@H](C)CN[C@H]1[C@H]2C  AUC(0-24) (patients, plasma; oral, 160 mg single, day -7, cycle 1): 1270 ng·h/mL
NC(=O)CC[C@@H]1NC(=O)[C@H](Cc2ccccc2)NC(=O)[C@H](Cc2ccc(O)cc2)NC(=O)CCSSC[C@@H](C(=O)N2CCC[C@H]2C(=O)N[C@H](CCCN=C(N)N)C(=O)NCC(N)=O)NC(=O)[C@H](CC(N)=O)NC1=O  long-term stability (UPLC-MS/MS; human plasma; 156.23 pg/mL, 30 days, -20 °C): 92.7%
CNCc1ccc(-c2[nH]c3cc(F)cc4c3c2CCNC4=O)cc1  AUC(0-t) (human patients, plasma; oral, 160 mg once daily, day 15, 24 h, steady state, arithmetic mean): 4110 ng·h/mL
CC(C)CCCCC(=O)N[C@@H](CCN)C(=O)N[C@H](C(=O)N[C@@H](CCN)C(=O)N[C@H]1CCNC(=O)[C@H]([C@@H](C)O)NC(=O)[C@H](CCN)NC(=O)[C@H](CCN)NC(=O)[C@H](CC(C)C)NC(=O)[C@@H](Cc2ccccc2)NC(=O)[C@H](CCN)NC1=O)[C@@H](C)O  free Cmax (equilibrium dialysis LC-MS/MS; human patients, plasma; dose not given, median): 150 ng/mL
CC[C@H](C)[C@H](NC(=O)[C@H](C)NC(=O)[C@H](CCCNC(=N)N)NC(=O)[C@H](CCCNC(=N)N)NC(=O)[C@H](CC(N)=O)NC(=O)[C@H](CCCNC(=N)N)NC(=O)[C@H](CCCNC(=N)N)NC(=O)[C@H](C)NC(=O)[C@@H](NC(=O)[C@H](CC(C)C)NC(=O)[C@@H](NC(=O)[C@@H](NC(=O)[C@H](CS)NC(=O)[C@H](CCCCN)NC(=O)[C@@H](N)CCCNC(=N)N)C(C)C)[C@@H](C)CC)C(C)C)C(=O)N[C@H](C(=O)N[C@H](C(=O)N[C@@H](CC(C)C)C(=O)N[C@@H](CS)C(=O)N[C@@H](CCCNC(=N)N)C(=O)O)[C@@H](C)CC)C(C)C  single disulfide form (LC-MS; PBS; 0.1 mg/mL): 43%
COc1ccc2nc([S@@+]([O-])Cc3ncc(C)c(OC)c3C)[nH]c2c1  adverse events (human healthy; 40 mg, infections and infestations): 0%
CCN1C(=O)CNc2ncc(-c3ccc(-c4nc[nH]n4)nc3C)nc21  AUC(0-24h) (human, plasma; oral, 10 mg twice daily, multiple doses): 766 ng·h/mL
O=C(c1nc2n(n1)[C@H](c1ccccc1)C[C@@H]2F)C1CC1  Vd/F (human, plasma; oral, 150 mg, single dose, fasted, healthy volunteers): 101 L
CN[C@H](CC(C)C)C(=O)N[C@H]1C(=O)N[C@@H](CC(N)=O)C(=O)N[C@H]2C(=O)N[C@H]3C(=O)N[C@H](C(=O)N[C@H](C(=O)O)c4cc(O)cc(O)c4-c4cc3ccc4O)[C@H](O)c3ccc(c(Cl)c3)Oc3cc2cc(c3O[C@@H]2O[C@H](CO)[C@@H](O)[C@H](O)[C@H]2O[C@H]2C[C@](C)(N)[C@H](O)[C@H](C)O2)Oc2ccc(cc2Cl)[C@H]1O  serum drug concentration (New Zealand White rabbit; intraosseous, 30 mg/kg; baseline: intravenous dosing): decreased
CC[C@H](C)[C@H](NC(=O)[C@H](Cc1ccccc1)NC(=O)[C@H](CCC(=O)O)NC(=O)[C@H](CCCCNC(=O)COCCOCCNC(=O)COCCOCCNC(=O)CC[C@H](NC(=O)CCCCCCCCCCCCCCCCC(=O)O)C(=O)O)NC(=O)[C@H](C)NC(=O)[C@H](C)NC(=O)[C@H](CCC(N)=O)NC(=O)CNC(=O)[C@H](CCC(=O)O)NC(=O)[C@H](CC(C)C)NC(=O)[C@H](Cc1ccc(O)cc1)NC(=O)[C@H](CO)NC(=O)[C@H](CO)NC(=O)[C@@H](NC(=O)[C@H](CC(=O)O)NC(=O)[C@H](CO)NC(=O)[C@@H](NC(=O)[C@H](Cc1ccccc1)NC(=O)[C@@H](NC(=O)CNC(=O)[C@H](CCC(=O)O)NC(=O)C(C)(C)NC(=O)[C@@H](N)Cc1cnc[nH]1)[C@@H](C)O)[C@@H](C)O)C(C)C)C(=O)N[C@@H](C)C(=O)N[C@@H](Cc1c[nH]c2ccccc12)C(=O)N[C@@H](CC(C)C)C(=O)N[C@H](C(=O)N[C@@H](CCCNC(=N)N)C(=O)NCC(=O)N[C@@H](CCCNC(=N)N)C(=O)NCC(=O)O)C(C)C  AUC(0-168 h) ratio (healthy Japanese subjects, plasma; subcutaneous, steady state, once weekly; baseline: 1.0 mg over 0.5 mg): 2.08
Nc1ccn([C@@H]2O[C@H](CO)[C@@H](O)C2(F)F)c(=O)n1  Vd (male BALB/c mouse, plasma; intravenous, 38 µmol/kg): 0.03 L
